Measured values of several laboratories.
Protocols differ between the studies behind these lines. Values joined by “and” are separate records of one study, mostly repeats; a detail may differ. Numbers after ± are the reported error.
Sequence of UniProt O15146 (whole entry, looked up): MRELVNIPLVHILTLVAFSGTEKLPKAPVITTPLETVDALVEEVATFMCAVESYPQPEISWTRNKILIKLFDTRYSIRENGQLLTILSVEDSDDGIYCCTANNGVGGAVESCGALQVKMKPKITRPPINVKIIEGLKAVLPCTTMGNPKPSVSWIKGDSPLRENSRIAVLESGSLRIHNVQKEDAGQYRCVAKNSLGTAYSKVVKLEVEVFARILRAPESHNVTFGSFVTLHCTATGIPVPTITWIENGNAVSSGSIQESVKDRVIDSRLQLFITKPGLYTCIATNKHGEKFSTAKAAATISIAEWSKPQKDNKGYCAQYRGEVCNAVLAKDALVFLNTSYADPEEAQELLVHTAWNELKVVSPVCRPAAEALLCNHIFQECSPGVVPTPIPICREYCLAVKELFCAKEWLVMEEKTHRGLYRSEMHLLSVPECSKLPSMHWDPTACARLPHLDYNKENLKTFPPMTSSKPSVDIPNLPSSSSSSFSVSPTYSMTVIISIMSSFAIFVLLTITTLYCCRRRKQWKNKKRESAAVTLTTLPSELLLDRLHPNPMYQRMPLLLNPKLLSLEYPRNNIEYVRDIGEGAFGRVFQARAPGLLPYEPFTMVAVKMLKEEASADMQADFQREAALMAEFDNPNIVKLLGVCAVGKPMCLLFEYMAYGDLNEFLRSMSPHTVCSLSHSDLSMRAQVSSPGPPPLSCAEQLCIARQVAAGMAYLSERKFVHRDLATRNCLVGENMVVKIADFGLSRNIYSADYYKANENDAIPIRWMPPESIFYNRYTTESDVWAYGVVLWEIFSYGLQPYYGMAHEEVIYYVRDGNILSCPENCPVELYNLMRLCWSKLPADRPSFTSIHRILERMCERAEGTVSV

`Cc1ccc(N(C)C2(C)CN(C)C2)cc1C(=O)N[C@H](C)c1cc(-c2cnn(C)c2)nc2ccccc12` has a viability of 98.6% and 99.5% and 96.6% (Vero E6; 7.812 µM).
`CC(C)[C@H]1NC(=O)C[C@H]2/C=C/CCSSC[C@@H](NC1=O)C(=O)N[C@H](Cc1cccc3ccccc13)C(=O)NCC(=O)O2` gave an inhibition of -2.9% (MUSK (Homo sapiens, UniProt O15146); enzyme activity, inhibitor; 10 µM).
`Nc1ncc(-c2cc(-c3cnn(CC(F)(F)F)c3)ncc2F)nc1C(=O)NC1CNCC(F)C1` (stereo not shown) gave a remaining binding of 100% (EGFR L858R T790M; KINOMEscan; 1 µM).
With `COc1ccccc1-c1n[nH]c2nc(NC3CCN(C(=O)Cc4ccc(F)cc4F)CC3)ncc12` the relative abundance was 0.87 (Leishmania donovani LINJ.11.1000; bead binding competition; Leishmania donovani extract; 10 µM; reference: vehicle).
`Cn1ccc2cc(-n3c(=O)[nH]c4sc5c(c4c3=O)CCCC5)ccc21` gave an inhibition of 46% (GABAA receptor rat; binding, radioligand binding; 10 µM, central, with: flunitrazepam).
The IC50 of `CC[C@@H]1CN2CCc3c([nH]c4cccc(OC)c34)[C@@H]2C[C@@H]1/C(=C\OC)C(=O)OC` is reported as 1 µg/mL and 0.8 µg/mL and 0.83 µg/mL and 0.82 µg/mL (rabbit anti-mitragynine polyclonal IgG; antigen binding, competitor, competitive indirect ELISA; 10% methanol; 60 min both antibody incubations).
With `CC[C@H](C)[C@H](NC(=O)[C@H](CC(C)C)NC(=O)[C@H](CC(C)C)NC(=O)[C@H](CC(=O)O)NC(=O)[C@@H](NC(=O)[C@H](CCC(=O)O)NC(=O)[C@H](CCCCN)NC(=O)[C@H](Cc1ccc(O)cc1)NC(=O)[C@H](CCCCN)NC(=O)[C@H](Cc1c[nH]cn1)NC(=O)CNC(=O)CN)[C@@H](C)O)C(=O)N[C@@H](CC(C)C)C(=O)N[C@@H](Cc1ccccc1)C(=O)N[C@@H](CCCCN)C(=O)N[C@@H](CC(=O)O)C(=O)N[C@@H](CC(=O)O)C(=O)N[C@@H](Cc1ccc(O)cc1)C(=O)N[C@@H](Cc1ccccc1)C(=O)N[C@@H](C)C(=O)N[C@@H](CCCCN)C(=O)N[C@@H](CCCCN)C(=O)N[C@@H](CC(N)=O)C(=O)N[C@@H](CCC(=O)O)C(=O)N[C@@H](CCC(=O)O)C(=O)N[C@@H](CCCNC(=N)N)C(=O)N[C@@H](CCCCN)C(N)=O` the initial rate was 509 ± 122 nM/min (HCV IRES RNA; RNA cleavage, fluorescence; hepatitis C virus; 10 µM, with: H2O2 and ascorbate 1 mM, fluorescein-labelled HCV RNA 1 µM).
`O=C(Oc1cccc2c1C(=O)C=CC2=O)c1ccccc1` gave an IC50 of over 50 µM (mouse brain serine hydrolases; competitive ABPP; non-selective labelling block, with: FP-rhodamine).
`Cc1ccc2c(n1)c(-c1cccc(S(C)(=O)=O)c1)c(C)n2C/C(F)=C/CN` gave an inhibition of 17% (GABAA receptor (rat); binding, radioligand binding; rat tissue; 10 µM, Ro-15-1788).
The initial rate of `CC(C)C[C@H](NC(=O)[C@H](CC(=O)O)NC(=O)[C@@H](NC(=O)[C@H](CCC(=O)O)NC(=O)[C@H](CCCCN)NC(=O)[C@H](Cc1ccc(O)cc1)NC(=O)[C@H](CCCCN)NC(=O)[C@H](Cc1c[nH]cn1)NC(=O)CNC(=O)CN)[C@@H](C)O)C(N)=O` is reported as 314 nM/min (HCV IRES RNA; RNA cleavage, gel electrophoresis; hepatitis C virus; 10 µM, with: co-reagents 1 mM, fluorescein-labelled HCV RNA 10 µM).
For `N#Cc1ccccc1CC(N)C(=O)NC(Cc1ccc(Cl)cc1Cl)C(=O)NC(CC(=O)NCCCc1cccnc1)Cc1ccc(F)cc1` (stereo not shown), the IC50 was over 10 µM (human protease panel; enzyme activity, inhibitor; off-target).
With `Cc1ccc(OCCN(C)C)cc1C(=O)N[C@H](C)c1cc(-c2cnn(C(F)F)c2)nc2ccccc12` the viability was 93.1% and 94.8% (Vero E6; 3.906 µM).
For `Cc1cc(O)cc(C)c1C[C@H](N)C(=O)N[C@H](CCCNC(=N)N)C(=O)N[C@@H](Cc1ccccc1)C(=O)N[C@@H](CCCCN)C(=O)NCCCCCCCCNC(=O)[C@H](Cc1ccccc1)NC(=O)[C@H](CC1CCCCC1)NC[C@@H]1Cc2ccccc2CN1C(=O)[C@@H](N)Cc1ccc(O)cc1`, the Ke was 15.6 ± 3.8 nM (delta opioid receptor (mouse); antagonist; mouse vas deferens; with: DPDPE).
Under “organ-to-brain weight ratio”, `O=C1NC2(CC2)COc2ncc(F)cc2[C@H]2COCCN2c2ccn3ncc1c3n2` is recorded as 2.93 ± 0.22% (Sprague-Dawley rat, male, adrenals; oral, 20 mg/kg/day, 4 weeks, end of treatment).
For `O=C(O)c1ccc(-c2nc(-c3ccccc3Cl)c3sccn23)cc1`, “lowest significant inhibitory concentration” read at least 20 µM (BLVRB human; enzyme activity, inhibitor; K562 intact cells; 24 h).
The photoaffinity enrichment of `C#CCNC(=O)CN(Cc1ccc(-c2ccc(F)c(CN3CCS(=O)(=O)CC3)n2)cc1)C(=O)c1ccc(C2(C(F)(F)F)N=N2)cc1` is reported as over 13 fold (mitochondrial carnitine/acylcarnitine carrier; chemical proteomics; CHO cells overexpressing CB2; 10 µM; reference: untreated).
`Cc1cc(Oc2nc(N3CC[C@@H](c4ccncc4)C3)ncc2F)[nH]n1` gave an IC50 of 32.4 µM (MDA-MB-468; cell growth or viability).
With `O=C(O)COc1c2c(c(OCC(=O)O)c3c1C1CC3c3cc4c(cc31)C1CC4c3ccccc31)C1CC2c2cc3c(cc21)C1CC3c2ccccc21` the association constant was 27 ± 4 M⁻¹ (DOPC; 1H NMR titration; methanol-d4; CH2-N(Me)3 signal).
With `CC(C)(C)C(=O)OCOP(=O)(OCOC(=O)C(C)(C)C)C1CCCN(O)C1=O` (stereo not shown) the CC50 was over 100 µM (HOP-62).

Repeated from above:
`Nc1ncc(-c2cc(-c3cnn(CC(F)(F)F)c3)ncc2F)nc1C(=O)NC1CNCC(F)C1` (stereo not shown) gave a remaining binding of 100% (EGFR L858R T790M; KINOMEscan; 1 µM).
